Assay results pooled from the literature.
Each numbered part is a random draw from the data of one study; scales do not carry over between parts. Changes are numbered by the printed parent chain.

Study 1 — target: CEBPD, bZIP domain (human); technique: DHFR protein complementation; medium: yeast; reference: wild-type JUN-FOS pair; direction: higher = stronger binding; measurement: binding fitness
Notes: single substitutions, most at no-binding floor
Starting sequence: JUN, bZIP domain (human); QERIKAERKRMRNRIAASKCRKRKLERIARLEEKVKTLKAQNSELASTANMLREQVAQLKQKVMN; partner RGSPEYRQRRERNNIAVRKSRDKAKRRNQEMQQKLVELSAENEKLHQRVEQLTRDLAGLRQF
E33R: -1.36 natural log
T37G: -1.4 natural log
L31Y: -1.33 natural log
M51R: -1.34 natural log
E32H: -1.22 natural log
A29Y: -1.41 natural log
K39V: -1.35 natural log
E32V: -1.3 natural log
M51N: -1.35 natural log
L38S: -1.49 natural log
A29S: -1.32 natural log
K34C: -1.44 natural log
I28A: -1.35 natural log
S47N: -1.34 natural log
V56L: -1.39 natural log
A40S: -1.37 natural log
K34E: -1.37 natural log
T48L: -1.35 natural log

Study 2 — target: CCND3, cyclin fold, Cln2 fusion (human); technique: yeast growth competition, sequencing; medium: yeast; notes: weak parent motif; reference: not given; direction: higher = stronger binding; measurement: normalised enrichment score
Starting sequence: SLBP docking peptide (human); ARYKRKLLINDFG; partner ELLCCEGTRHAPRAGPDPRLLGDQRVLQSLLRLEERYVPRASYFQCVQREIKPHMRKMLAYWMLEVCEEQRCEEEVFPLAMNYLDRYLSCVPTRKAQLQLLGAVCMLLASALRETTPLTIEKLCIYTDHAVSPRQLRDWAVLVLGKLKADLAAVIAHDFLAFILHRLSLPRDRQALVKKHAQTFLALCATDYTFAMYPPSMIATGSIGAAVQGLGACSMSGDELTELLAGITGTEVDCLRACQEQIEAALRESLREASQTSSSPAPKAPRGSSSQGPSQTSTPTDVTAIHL
L8H: 0.106
N10K: 0.156
Y3E: 0.147
Y3Q: 0.112
R5F: 0.0966
R2M: 0.119
K6P: 0.164
N10D: 0.125
F12T: 0.0127
K4C: 0.0899
K4W: 0.233
R2C: 0.0834
F12V: 0.116
G13F: 0.11
A1H: 0.0919
G13N: 0.107
K4E: 0.0817
N10L: 0.201
N10Q: 0.105

Study 3 — target: UBE2R2 UBC core domain (UniProt Q712K3); technique: yeast two-hybrid; medium: yeast; notes: mostly zero background; reference: not given; direction: higher = stronger interaction; measurement: lacZ reporter activity
B1: RNF25 RING domain (UniProt Q96BH1); chain LTDNNIPHGQCVICLYGFQEKEAFTKTPCYHYFHCHCLARYIQHMEQELKAQGQEQEQERQHATTKQKAVGVQCPVCREPLVYDLASL
B2: ZNF598 RING domain (UniProt Q86UK7); chain AAAPERGGGSCVLCCGDLEATALGRCDHPVCYRCSTKMRVLCEQRYCAVCREELRQVVFGK
B3: RNF170 RING domain (UniProt Q96K19); chain TRQQFYTDMYCPICLHQASFPVETNCGHLFCGACIIAYWRYGSWLGAISCPICRQTVTLLLTVF
B4: UHRF2 RING domain (UniProt Q96PU4); chain CGGDPEKKCHSCSCRVCGGKHEPNMQLLCDECNVAYHIYCLNPPLDKVPEEEYWYCPSCKTDSSEVVKAGER
B5: TRIM69 RING domain (UniProt Q86WT6); chain VIQDITMELHCPLCNDWFRDPLMLSCGHNFCEACIQDFWRLQAKETFCPECKMLCQYNNCTF
B6: ARK2C RING domain (UniProt Q6ZSG1); chain EGEESDTDEKCTICLSMLEDGEDVRRLPCMHLFHQLCVDQWLAMSKKCPICRVDIETQLGAD
B7: TRIM63 RING domain (UniProt Q969Q1); chain PMENLEKQLICPICLEMFTKPVVILPCQHNLCRKCANDIFQAANPYWTSRGSSVSMSGGRFRCPTCRHEVIMDRHGV
Residues (chain): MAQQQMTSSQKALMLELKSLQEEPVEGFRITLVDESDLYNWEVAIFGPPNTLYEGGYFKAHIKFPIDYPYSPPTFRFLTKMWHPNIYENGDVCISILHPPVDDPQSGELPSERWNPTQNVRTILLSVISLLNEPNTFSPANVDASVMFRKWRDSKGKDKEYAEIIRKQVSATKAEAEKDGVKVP
QLRRLQEERTCKVCMDKEVSIVFIPCGHLVVCKDCAPSLRKCPICRSTIKGTVRTF (BIRC3 RING domain (UniProt Q13489)): 0
EDEVSDNSAECVVCLSDVRDTLILPCRHLCLCNTCADTLRYQANNCPICRLPFRALLQIR (RNF157 RING domain (UniProt Q96PX1)): 0
DDENSDNSNECVVCLSDLRDTLILPCRHLCLCTSCADTLRYQANNCPICRLPFRALLQIR (MGRN1 RING domain (UniProt O60291)): 0
RLTMMWEEVTCPICLDPFVEPVSIECGHSFCQECISQVGKGGGSVCPVCRQRFLLKNLRP (TRIM21 RING domain (UniProt P19474)): 0
QHHELTSLFECPVCFDYVLPPILQCQAGHLVCNQCRQKLSCCPTCRGALTPSIRNL (SIAH2 RING domain (UniProt O43255)): 0
QLRRLQEERTCKVCMDKEVSVVFIPCGHLVVCQECAPSLRKCPICRGIIKGTVRTF (BIRC2 RING domain (UniProt Q13490)): 0
B1 (RNF25 RING domain): 0
B2 (ZNF598 RING domain): 0
B3 (RNF170 RING domain): 0
QLQDIKEQTMCPVCLDRLKNMIFLCGHGTCQLCGDRMSECPICRKAIERRILLY (MIB1 RING domain (UniProt Q86YT6)): 0
DAIPSLSECQCGICMEILVEPVTLPCNHTLCKPCFQSTVEKASLCCPFCRRRVSSWTRYH (RNF168 RING domain (UniProt Q8IYW5)): 0
B4 (UHRF2 RING domain): 0
B5 (TRIM69 RING domain): 0
B6 (ARK2C RING domain): 0
FPEHFVKSISCQICEHILADPVETNCKHVFCRVCILRCLKVMGSYCPSCRYPCFPTDLES (RAG1 RING domain (UniProt P15918)): 0
FASPPDSNFVCSVCHGVLKRPARLPCSHIFCKKCILRWLARQKTCPCCRKEVKRKKVVH (RNF151 RING domain (UniProt Q2KHN1)): 0
KTLSRFGIQPCSICLGDAKDPVCLPCDHVHCLRCLRAWFASEQMICPYCLTALPDEFSPA (RNF213 RING domain (UniProt Q63HN8)): 0
B7 (TRIM63 RING domain): 0

Study 4 — technique: aptamer microarray, sandwich; molecule type: DNA with 2'F-ANA; medium: in vitro; tested at: 200 nM; together with: Cy3 exosite-II aptamer, 400 nM; direction: higher = stronger binding; measurement: mean fluorescence intensity; oligonucleotide: GGTTGGTGTGGTTGG
Target: Prothrombin, mature alpha-thrombin (F2, Homo sapiens, UniProt P00734)
Notes: whole 15-mer aptamer, many near background
2'F-ANA at 1 2 3 5 7 12 13: 96.4 a.u.
2'F-ANA at 3 4 5 8 10 11 13: 50.2 a.u.
2'F-ANA at 1 3 8 10 12 13 14 15: 58.5 a.u.
2'F-ANA at 4 5 9 11 12 14 15: 44.8 a.u.
2'F-ANA at 1 3 4 7 8 9 10 12 13 14: 54.1 a.u.
2'F-ANA at 1 2 6 7 9 10 12 13 15: 64.9 a.u.
2'F-ANA at 1 2 4 6 7 9 14: 54.1 a.u.
2'F-ANA at 2 4 6 7 14: 109 a.u.
2'F-ANA at 3 4 6 7 9 12 15: 748 a.u.
2'F-ANA at 3 4 5 6 7 8 9 10 13 14 15: 49.5 a.u.
2'F-ANA at 1 2 3 5 6 7 9 10 12 13 14 15: 48.5 a.u.
2'F-ANA at 2 4 6 10 11 12 13: 88.9 a.u.
2'F-ANA at 1 2 3 4 5 11 14: 41.7 a.u.
2'F-ANA at 1 5 6 7 12 13 14 15: 47.6 a.u.
2'F-ANA at 1 4 6 10 11 15: 56.2 a.u.
2'F-ANA at 1 2 4 8 9 12 13 14 15: 56.5 a.u.
2'F-ANA at 2 3 8 12: 1150 a.u.
2'F-ANA at 2 4 5 7 8 9 11 12 14 15: 59.6 a.u.
2'F-ANA at 3 6 7 9 10 12 13 15: 446 a.u.
2'F-ANA at 1 2 3 5 6 7 11 12 14 15: 58.8 a.u.
2'F-ANA at 1 3 4 8 10 11 15: 59.1 a.u.
2'F-ANA at 2 3 6 7 8 10 12 13 15: 404 a.u.
2'F-ANA at 2 4 5 6 7 8 9 10 12 14 15: 54.1 a.u.
2'F-ANA at 1 2 3 4 10 11 12 14 15: 50.8 a.u.
2'F-ANA at 2 3 5 6 7 8 11 14 15: 52.1 a.u.

Study 5 — technique: DHFR PCA, deep sequencing; medium: yeast; together with: (+)-ABA 58 µM; reference: wild-type fitted maximum; direction: higher = stronger binding; measurement: relative binding score
Target: ABI1, truncated, D143A, DHFR fusion (Arabidopsis thaliana)
Notes: methotrexate growth selection, single substitutions
Starting sequence: PYL1, truncated, DHFR fusion (Arabidopsis thaliana); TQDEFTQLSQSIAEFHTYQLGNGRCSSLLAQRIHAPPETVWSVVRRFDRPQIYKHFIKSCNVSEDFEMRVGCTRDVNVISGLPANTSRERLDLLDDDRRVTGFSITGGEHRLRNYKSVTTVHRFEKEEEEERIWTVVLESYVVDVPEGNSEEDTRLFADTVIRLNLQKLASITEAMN
D144K: 46%
Y53H: 74%
G81F: -22.2%
V100W: 5.05%
E109K: 83.1%
V145R: 44.1%
F124M: 97.1%
E109D: 113%
N114V: 0.971%
T73G: 49.9%
R113L: 87.2%
T135V: 34.9%
E89V: 2.77%
N77V: 89.6%
R45D: -12.5%
R46N: 55.8%
Q10A: 99.6%

For quick reference, copied from above (study 3):
RLTMMWEEVTCPICLDPFVEPVSIECGHSFCQECISQVGKGGGSVCPVCRQRFLLKNLRP (TRIM21 RING domain (UniProt P19474)): 0
QHHELTSLFECPVCFDYVLPPILQCQAGHLVCNQCRQKLSCCPTCRGALTPSIRNL (SIAH2 RING domain (UniProt O43255)): 0
QLRRLQEERTCKVCMDKEVSVVFIPCGHLVVCQECAPSLRKCPICRGIIKGTVRTF (BIRC2 RING domain (UniProt Q13490)): 0
B1 (RNF25 RING domain): 0
B2 (ZNF598 RING domain): 0
B3 (RNF170 RING domain): 0
QLQDIKEQTMCPVCLDRLKNMIFLCGHGTCQLCGDRMSECPICRKAIERRILLY (MIB1 RING domain (UniProt Q86YT6)): 0
DAIPSLSECQCGICMEILVEPVTLPCNHTLCKPCFQSTVEKASLCCPFCRRRVSSWTRYH (RNF168 RING domain (UniProt Q8IYW5)): 0
B4 (UHRF2 RING domain): 0
B5 (TRIM69 RING domain): 0
B6 (ARK2C RING domain): 0
FPEHFVKSISCQICEHILADPVETNCKHVFCRVCILRCLKVMGSYCPSCRYPCFPTDLES (RAG1 RING domain (UniProt P15918)): 0
FASPPDSNFVCSVCHGVLKRPARLPCSHIFCKKCILRWLARQKTCPCCRKEVKRKKVVH (RNF151 RING domain (UniProt Q2KHN1)): 0
KTLSRFGIQPCSICLGDAKDPVCLPCDHVHCLRCLRAWFASEQMICPYCLTALPDEFSPA (RNF213 RING domain (UniProt Q63HN8)): 0
B7 (TRIM63 RING domain): 0
